Assay results collected from several papers.
Numbers after ± are the reported error.
STAT3: Signal transducer and activator of transcription 3 (STAT3, Homo sapiens, UniProt P40763)
UniProt P40763, sequence (whole entry, looked up): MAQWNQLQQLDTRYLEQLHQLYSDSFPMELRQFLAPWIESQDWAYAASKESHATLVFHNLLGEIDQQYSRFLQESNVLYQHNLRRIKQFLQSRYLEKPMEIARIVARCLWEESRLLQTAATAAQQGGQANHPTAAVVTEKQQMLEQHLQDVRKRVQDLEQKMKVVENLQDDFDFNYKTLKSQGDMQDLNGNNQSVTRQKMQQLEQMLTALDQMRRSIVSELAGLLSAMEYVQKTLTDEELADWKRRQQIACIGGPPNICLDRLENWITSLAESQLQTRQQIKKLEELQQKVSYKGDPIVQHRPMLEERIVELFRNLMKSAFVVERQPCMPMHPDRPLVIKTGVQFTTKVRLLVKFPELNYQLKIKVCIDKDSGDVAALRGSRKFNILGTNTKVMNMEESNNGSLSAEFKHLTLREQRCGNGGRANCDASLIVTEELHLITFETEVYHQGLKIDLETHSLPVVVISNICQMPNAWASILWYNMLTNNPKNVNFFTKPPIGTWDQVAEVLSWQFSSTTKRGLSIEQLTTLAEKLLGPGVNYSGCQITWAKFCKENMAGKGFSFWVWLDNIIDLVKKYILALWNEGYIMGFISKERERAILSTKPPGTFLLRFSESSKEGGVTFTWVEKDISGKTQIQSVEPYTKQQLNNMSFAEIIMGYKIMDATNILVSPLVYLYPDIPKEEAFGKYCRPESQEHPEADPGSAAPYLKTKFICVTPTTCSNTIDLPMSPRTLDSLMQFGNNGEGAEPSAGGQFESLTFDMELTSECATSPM
STAT3 SH2 domain: Signal transducer and activator of transcription 3, SH2 domain (STAT3, Homo sapiens, UniProt P40763)

CC[C@H](C)[C@H](NC(=O)[C@H](Cc1ccc(O)cc1)NC(=O)[C@@H]1CCCN1C(=O)[C@H](C)NC(=O)[C@H](CC(C)C)NC(=O)[C@H](C)NC(=O)CCCCCNC(=O)[C@H](Cc1ccc(O)cc1)NC(=O)[C@H](Cc1c[nH]cn1)NC(=O)[C@H](CCSC)NC(=O)[C@H](CCSC)NC(=O)[C@H](CC(=O)O)NC(=O)[C@@H]1CCCN1C(=O)[C@@H]1CCCN1C(=O)[C@H](Cc1c[nH]c2ccccc12)NC(=O)[C@H](CO)NC(=O)[C@@H](NC(=O)[C@H](Cc1ccc(O)cc1)NC(=O)[C@H](Cc1ccc(O)cc1)NC(C)=O)C(C)C)C(=O)N1CCC[C@H]1C(=O)N[C@@H](Cc1ccc(O)cc1)C(=O)NCC(=O)N[C@@H](CCCNC(=N)N)C(=O)N[C@@H](CCCCN)C(=O)N[C@@H](CCCCN)C(=O)N[C@@H](CCCNC(=N)N)C(=O)N[C@@H](CCCNC(=N)N)C(=O)N[C@@H](CCC(N)=O)C(=O)N[C@@H](CCCNC(=N)N)C(=O)N[C@@H](CCCNC(=N)N)C(=O)N[C@@H](CCCNC(=N)N)C(N)=O  Kd (STAT3; binding, MST): 18.4 µM
O=C(Nc1ccc(-c2cnc3cc(C4=CCNCC4)ccn23)cc1)c1ccc([N+](=O)[O-])o1  Kd (STAT3; binding, SPR): 7.55 µM
CC(C)C[C@H](NC(=O)/C=C/c1ccc(OP(=O)(O)O)cc1)C(=O)N1CCC[C@H]1C(=O)NC/C=C/C(N)=O  IC50 (STAT3 SH2 domain; inhibitor, fluorescence polarization): 1.11 ± 0.43 µM
C/C(=C\C(=O)N[C@@H](CC(C)C)C(=O)N1CC(C)(C)C[C@H]1C(=O)N[C@H](C)CCC(N)=O)c1ccc(OP(=O)(O)O)cc1  IC50 (STAT3; phosphopeptide binding, inhibitor, fluorescence polarization): 0.155 ± 0.031 µM
CC(C)C[C@H](NC(=O)c1ccc2ccc(OP(=O)(O)O)cc2c1)C(=O)N1CCC[C@H]1C(=O)N[C@@H](CCC(N)=O)C(=O)N[C@H](C(N)=O)[C@@H](C)O  IC50 (STAT3; SH2 domain binding, fluorescence polarization): > 100 µM
C/C(=C\C(=O)N[C@@H](CC(C)C)C(=O)N(C)CC(=O)N[C@H](C)CCC(N)=O)c1ccc(OP(=O)(O)O)cc1  IC50 (STAT3; phosphopeptide binding, inhibitor, fluorescence polarization): 1.54 ± 0.034 µM
CC(C)C[C@H](NC(=O)/C=C/c1ccc(OP(=O)(O)O)cc1)C(=O)N1CCC[C@H]1C(=O)N1CCC[C@@H]1CCC(N)=O  IC50 (STAT3 SH2 domain; inhibitor, fluorescence polarization): 3.31 ± 0.392 µM
CC(C)C[C@H](NC(=O)Cc1c[nH]c2cc(OP(=O)(O)O)ccc12)C(=O)N1CCC[C@H]1C(=O)N[C@@H](CCC(N)=O)C(=O)N[C@H](C(N)=O)[C@@H](C)O  IC50 (STAT3; SH2 domain binding, fluorescence polarization): > 100 µM
